Published values pooled from the literature.
Lines come from different studies, so protocols differ. ± gives the spread as reported.
DRD3: D(3) dopamine receptor (DRD3, Homo sapiens, UniProt P35462)

The remaining binding of `C[C@H]1CN(c2n[nH]c3nc(N[C@H]4CC[C@H](NS(=O)(=O)CCC(F)(F)F)CC4)ncc23)CCO1` is reported as 1.01 (Structural maintenance of chromosomes protein 2 (Homo sapiens, UniProt O95347); Kinobeads competition, refers to: SMC2; 0.16 µM, unit not given; baseline: vehicle).
`CC[C@@H](C)[C@@H](NC(=O)[C@@H](Cc1ccc(O)cc1)NC(=O)[C@H]1CCCN1C(=O)[C@@H](CCCNC(=N)N)NC(=O)[C@H](N)Cc1c[nH]cn1)C(=O)N[C@H](C)C(=O)N[C@H](Cc1c[nH]cn1)C(=O)N[C@H](CCCNC(=N)N)C(=O)N[C@H](CCCCNC(=O)c1cccc(S(=O)(=O)F)c1)C(=O)N[C@H](Cc1ccc(O)cc1)C(=O)N[C@H](CO)C(=O)N[C@H](Cc1ccccc1)C(N)=O` — result for “surface TFRC expression”: 0.83 (Transferrin receptor protein 1 (Tfrc, Mus musculus, UniProt Q62351); flow cytometry; RAW264.7; 24 h, pH 6, replicate 1, unit not given; baseline: 0 h).
`O=C1CN(C(=O)CCn2ccnc2)CC(O)CN1CCc1ccccc1` (stereo not drawn) has an apparent Vmax of 0.34 ± 0.02 µM/min (Cholinesterase (BCHE, Homo sapiens, UniProt P06276); inhibitor; 0.5 µM).
For `CC(=O)P(=O)(O)OCCc1cn([C@H](Cc2ccccc2)C(=O)O)nn1`, “IC50 fold increase” read 17 fold (dxs (Pseudomonas aeruginosa, UniProt Q9KGU7, R106A); inhibitor, DXPS-IspC coupled; baseline: wild-type enzyme).
For `COc1cc(Nc2ncc(F)c(Nc3ccc4c(n3)NC(=O)C(C)(C)O4)n2)cc(OC)c1OC`, the inhibition was 14% (MAPK4 (Homo sapiens, UniProt P31152); binding, KINOMEscan; 10 µM, ERK4 kinase).
For `C[n+]1cn([C@@H]2O[C@H](COP(=O)([O-])OP(=O)(O)OP(=O)(O)OC[C@H]3O[C@@H](n4cnc5c(=O)[nH]c(N)nc54)[C@H](O)[C@@H]3O)[C@@H](O)[C@H]2O)c2nc(N)[nH]c(=O)c21`, “ΔH second site” read -13.4 kcal/mol (m7GpppX diphosphatase (DCS1, Saccharomyces cerevisiae, UniProt Q06151, H268N); binding, ITC).
`Nc1ncnc2c1ncn2[C@@H]1O[C@H](COP(=O)(O)OP(=O)(O)O)[C@@H](O)[C@H]1O` has a -TΔS of -2.9 kcal/mol (Cell cycle histidine kinase CckA, cytoplasmic region (Caulobacter vibrioides, UniProt Q9X688); binding, ITC; 25 °C, added: without c-di-GMP).
`O=C(O)Cc1c[nH]cn1` gave a fraction bound of 0.000218 (SLC6A6 (Homo sapiens, UniProt P31641, Y138A); binding, microscale thermophoresis; 37.6 nM, fitted curve; higher = more binding).
`CC[C@H](C)[C@@H]1NC(=O)[C@H](C(C)C)NC(=O)[C@H](Cc2ccc(O)cc2)NC(=O)[C@H](Cc2ccccc2)NC(=O)[C@H](CCC(N)=O)NC(=O)[C@@H]2CCCN2C(=O)[C@H](Cc2c[nH]cn2)NC(=O)[C@H](Cc2ccc(O)cc2)NC(=O)[C@H](Cc2c[nH]cn2)NC(=O)[C@@H](NC(=O)[C@H](C)N)CSSC[C@@H](C(=O)N[C@@H](CO)C(=O)NCC(N)=O)NC1=O` — result for “dissociation rate constant”: 1.1e-08 s⁻¹ (Streptavidin (Streptomyces avidinii, UniProt P22629); surface plasmon resonance; pH 7.4, 25 °C, 2% DMSO, 0.005% Tween-20, 1:1 model).
`Cc1[nH]c(C)c(S(=O)(=O)Nc2ccc(S(F)(F)(F)(F)F)cc2)c1C(=O)N1CCC(F)(F)C1` has an Imax of 99 ± 3% (DRD3; β-arrestin recruitment, agonist, PathHunter; baseline: dopamine).
Under “probe labelling ratio”, `O=C(c1ccc(Cl)cc1)N1CCN2C(=O)N(OC(=O)N3CCOc4ccccc43)C(=O)C2C1` (stereo not drawn) is recorded as 1.76 (Biotinidase (Homo sapiens, UniProt P43251); MS-based ABPP; SW-620 conditioned medium; 10 µM, 1 h, 37 °C, median protein ratio; baseline: compound over DMSO).
The remaining binding of `Cc1nn(C)cc1-c1nc2c(N3CCN(Cc4ccc(Cl)cc4)CC3)c(Cl)cnc2[nH]1` is reported as 88% (MAP3K13 (Homo sapiens, UniProt O43283); KINOMEscan; 1 µM; baseline: DMSO control).
The remaining activity of `Cc1ccc(NC(=O)c2ccc(CN3CCN(C)CC3)cc2)cc1Nc1nccc(-c2cncc(-c3oncc3C)c2)n1` is reported as ≤ 50% (DDR1/DDR2; KinaseProfiler; 500 nM).
For `CN(C(=O)n1cnc(-c2ccc[n+]([O-])c2)c1)C1CCCCC1`, the inhibition was 29% (GABAA receptor chloride channel, rat; binding; 50 µM, added: [3H]TBOB).
`CC(=O)c1cnc2ccc(-c3cc(Cl)c(O)c(Cl)c3)nc2c1N[C@H]1CC[C@H](CN(C)C)CC1` — result for “fold change of KD”: > 100 (Receptor-like protein kinase ANXUR1 (ANX1, Arabidopsis thaliana, UniProt Q9SR05); binding, SPR; concentration not given; baseline: FER).
`NCc1cc(=O)[nH]o1` has a normalized score of 0.965 (GABA-A receptor; alpha-1/beta-2/gamma-2 (Rattus norvegicus, UniProt P18508+P62813+P63138); membrane potential, agonist, QP-DHM primary screen; HEK293 expressing GABAA; 10 µM; direction not given).
For `CC1(C)CC(NC(=O)C(=O)Nc2ccc(Cl)cc2)CC(C)(C)N1`, “binding free energy” read -6.9 kcal/mol (Envelope glycoprotein gp160, gp120 (env, Human immunodeficiency virus type 1 group M subtype B, UniProt P35961); urea denaturation, Trp fluorescence; PBS; 100 µM, pH 7.5).
`COc1cc(N)c(Cl)cc1C(=O)NC1CN2CCC1CC2` (stereo not drawn): “log2 fold change” 0.203 (HCAR3 (Homo sapiens, UniProt P49019); β-arrestin recruitment, TANGO luminescence, refers to: GPR109B; concentration not given; baseline: basal luminescence).
The Ki ratio of `O=C(O)COP(=O)(O)O` is reported as 60 (TPI1 (Saccharomyces cerevisiae, UniProt P00942, Y208F); enzyme activity, competitive inhibitor, GPDH/NADH-coupled; pH 8.3, 25 °C, ionic strength 0.1 NaCl, added: glyceraldehyde 3-phosphate substrate; baseline: mutant over wild type).
The remaining activity of `CC1(C)C(C=C(Cl)Cl)C1C(=O)OCc1cccc(Oc2ccccc2)c1` (stereo not drawn) is reported as 100% (uncharacterized protein (Anopheles coluzzii, UniProt A0A6E8VQK1); enzyme activity, inhibitor; Sf9 cell homogenate; 0.2326 µM, 0.1667 h, added: α-naphthyl acetate substrate; baseline: no inhibitor).
With `COc1ccc(N2C(=O)N(c3c(C)cccc3Cl)Cc3cnc(Nc4ccc(C5CCN(C)CC5)cc4OC)nc32)nc1` the inhibition was 2.33% (SPHK1 (Homo sapiens, UniProt Q9NYA1); kinase activity; 0.5 µM).
With `CC1(C)S[C@@H]2[C@H](NC(=O)Cc3ccccc3)C(=O)N2[C@H]1C(=O)O` the kinact/KI was 70000 ± 20000 M⁻¹ s⁻¹ (Penicillin-binding protein 1A (pbpA, Streptococcus pneumoniae, UniProt Q8DR59); inhibitor).
For `C#CCNCC(=O)O`, the kinact/KI was 30 ± 1 M⁻¹ s⁻¹ (putA (Sinorhizobium meliloti, UniProt F7X6I3); covalent inactivator; 23 °C).
With `COc1cc2nccc(Oc3ccc(NC(=O)c4cc5c(n(-c6ccccc6)c4=O)CCCC5=O)nc3)c2cc1OC` the selectivity ratio was > 100 (ABL1 (Homo sapiens, UniProt P00519); cell viability, CellTiter-Glo; Ba/F3 expressing recombinant kinase; baseline: ABL1 IC50 over AXL IC50).
With `[2H]c1c([2H])c([C@]2([2H])CCCN2C(=O)C(C)(C)Oc2ccc3cn[nH]c3c2)c([2H])c([2H])c1C([2H])([2H])[2H]` the remaining binding was 88% (IRAK4 (Homo sapiens, UniProt Q9NWZ3); KINOMEscan; 1 µM; baseline: DMSO control).
`CC(C)[N+](C)(C)CC(O)COc1cccc2ccccc12` (stereo not drawn) gave an efficacy of -94.8 ± 9.07% (Cholinesterase (BCHE, Homo sapiens, UniProt P06276); concentration not given, Triton).
`O=C(O)C(F)(F)C(F)(F)C(F)(F)C(F)(F)C(F)(F)C(F)(F)C(F)(F)F` has a Jmax of 629 ± 71 pmol/min/mg protein (SLC22A8 (Homo sapiens, UniProt Q8TCC7); uptake, substrate, two-transporter equation fit; HEK293 cells stably expressing SLC22A8; 2.5 min, 37 °C).
The selectivity ratio of `O=C(/C=C/c1ccc(OC(=O)N2CCCC2)cc1)NC1CCN(Cc2ccccc2)CC1` is reported as 0.2 (Cholinesterase (BCHE, Equus caballus, UniProt P81908); Ellman; equine serum BuChE; baseline: AChE IC50 over BuChE IC50).
The IC25 of `Oc1ccc(-c2cccc(Cl)c2)cc1Cl` is reported as 1000 nM (Androgen receptor (AR, Homo sapiens, UniProt P10275); reporter gene, antagonist; 24 h, added: DHT 2 nM).
With `Cc1cn([C@H]2C[C@H](O)[C@@H](COP(=O)(O)OP(=O)(O)OP(=O)(O)O)O2)c(=O)[nH]c1=O` the kcat was 0.21 ± 0.0297 s⁻¹ (Gag-Pol polyprotein, reverse transcriptase (gag-pol, Human immunodeficiency virus type 1 group M subtype B, UniProt P04585, K653R); nucleotide misincorporation, steady-state kinetics; K66R RT, added: matched template/primer, template T).
`CN1CCN(c2cc(-c3ccncc3)c(-c3ccc4ccccc4c3)nn2)CC1` gave an activation of 0.5% (CXCR3 (Homo sapiens, UniProt P49682); agonist, FLIPR; 12.5 µM).
`CN(C)CCOC(C)(c1ccccc1)c1ccc(Cl)cc1` (stereo not drawn) has an efficacy of -102 ± 2.41% (Cholinesterase (BCHE, Homo sapiens, UniProt P06276); concentration not given, Triton).
`COc1c(N2CC3CCCN(C(=O)OCc4ccc([N+](=O)[O-])cc4)C3C2)c(F)cc2c(=O)c(C(=O)O)cn(C3CC3)c12` (stereo not drawn) gave an initial rate of 0.045 ± 0.002 µM/min (nfsB (Escherichia coli K-12, UniProt P38489); substrate; added: NADH 100 µM).
The remaining binding of `COc1ncccc1-c1cnn2ccc(N3CCN(C(=O)OC(C)C)CC3)nc12` is reported as 100% (Ribosomal protein S6 kinase alpha-1, C-terminal kinase domain (RPS6KA1, Homo sapiens, UniProt Q15418); KINOMEscan binding; 1 µM; baseline: untreated control).
For `O=C(Nc1cnccc1Cl)N1CCN(Cc2ccc3c(c2)OC(F)(F)O3)CC1`, the inhibition was 43% (GABAA receptor chloride channel, rat; binding; 50 µM, added: [3H]TBOB).
`CNc1cc(OC)c(C(=O)NC2CCN(Cc3ccccc3)C2C)cc1Cl` (stereo not drawn) gave an efficacy of -82.9 ± 22.2% (Cholinesterase (BCHE, Homo sapiens, UniProt P06276); concentration not given, Triton).
For `COc1ccc2[nH]c3c(c2c1)CCN(C)CC3.Cl`, the Hill coefficient was 1.4 ± 0.7 (Voltage-dependent N-type calcium channel subunit alpha-1B (Homo sapiens, UniProt Q00975); barium current, inhibitor, whole-cell patch clamp; HEK293T).
For `O=C(Nc1cccnn1)N1CCC(=Cc2cccc(Oc3ccc(C(F)(F)F)cn3)c2)CC1`, “inhibition of binding” read 35% (DRD3; radioligand binding; 50 µM, added: [3H]spiperone).
For `Nc1cnn(-c2ccccc2)c(=O)c1Cl`, the specificity ratio was 36.1 (PPARG (Homo sapiens, UniProt P37231); reporter gene, agonist, β-lactamase reporter; HEK293-H cells; nominal concentration; baseline: cytotoxicity IC10 over EC10).

Repeated from above:
For `O=C(Nc1cccnn1)N1CCC(=Cc2cccc(Oc3ccc(C(F)(F)F)cn3)c2)CC1`, “inhibition of binding” read 35% (DRD3; radioligand binding; 50 µM, added: [3H]spiperone).
The remaining activity of `Cc1ccc(NC(=O)c2ccc(CN3CCN(C)CC3)cc2)cc1Nc1nccc(-c2cncc(-c3oncc3C)c2)n1` is reported as ≤ 50% (DDR1/DDR2; KinaseProfiler; 500 nM).
